Assay results from different studies.
Lines come from different studies, so protocols differ. ± marks the error that the study gave.
gdpP residues 84-659: gdpP, residues 84-659 (Bacillus subtilis, UniProt P37484)
xlnD: Exo-1,4-beta-xylosidase xlnD (xlnD, Emericella nidulans, UniProt Q5BAS1)
Alpha-amylase: Alpha-amylase (Bacillus subtilis, UniProt P00691)
RMS3: RMS3 (Lathyrus oleraceus, UniProt A0A109QYD3)

SMILES	target	test	system	conditions	how to read	quantity	value
CC[C@H](C)[C@H](NC(=O)[C@H](CCCNC(=N)N)NC(=O)[C@H](CO)NC(=O)[C@@H](NC(=O)[C@H](CC(=O)O)NC(=O)[C@H](CC(=O)O)NC(=O)CCCCCNC(=O)c1ccc2c(c1)C(=O)OC21c2ccc(O)cc2Oc2cc(O)ccc21)[C@@H](C)O)C(=O)N[C@@H](CCC(=O)O)C(=O)N[C@@H](CCC(=O)O)C(=O)N[C@H](C(=O)N[C@@H](CC(=O)O)C(=O)O)C(C)C	FKBP4 (Homo sapiens, UniProt Q02790)	binding, fluorescence polarization	–	pH 7.4, full-length protein	baseline: wild-type Hsp90α tracer	affinity decrease	≥ 12 fold
O=C(O)COc1ccc(Cl)cc1	Chloride channel protein (Torpedo marmorata, UniProt P21564, C212S)	single-channel current, noise analysis	–	20 mM, -80 mV	–	higher corner frequency	920 Hz
CC(=O)NC(Cc1ccc(Br)c(Cl)c1)C(=O)N[C@@H](C)C(=O)N1CCC[C@H]1C(=O)N1CCC[C@H]1C(=O)N[C@@H](CCC(=O)O)C(=O)N[C@@H](Cc1c[nH]cn1)C(=O)N[C@@H](CO)C(=O)N[C@H](C(=O)N[C@@H](C)C(N)=O)[C@@H](C)OP(=O)(O)O (some centres unmarked)	MAP4K4 (Homo sapiens, UniProt O95819)	enzyme activity, inhibitor	–	10 µM	–	inhibition	5.45%
Nc1ncnc2c1ccn2[C@@H]1O[C@@H]2COP(=O)(O)O[C@H]3[C@@H](O)[C@H](n4ccc5c(N)ncnc54)O[C@@H]3COP(=O)(O)O[C@H]2[C@H]1O	gdpP residues 84-659	HPLC	–	concentration not given	baseline: c-di-AMP, higher = slower hydrolysis	hydrolysis rate fold decrease	1.8
O=C(Nc1cccc(-c2nn[nH]n2)c1)c1cc(-c2ncccn2)cc(C(F)(F)F)c1	CTX-M-27 beta-lactamase	surface plasmon resonance	–	–	–	Kd/Ki difference	2 to 3 fold
O=C1SCCC1NC(C(=O)NCc1ccccc1)C1CC1 (centres unmarked)	TST (Homo sapiens, UniProt Q16762)	activator	–	34.2 µM, versus sodium thiosulfate, together with: KCN 60 mM	–	Vmax	0.48 ± 0.02 mM/s
CN1/C(=C/C=C/C=C/C2=[N+](CCCCCC(=O)NCCCCCCCCN3[C@H]4[C@H](O)[C@@H](O)[C@H](O[C@@H]5OC[C@@H](O)[C@H](O)[C@H]5O)C[C@H]43)c3ccccc3C2(C)C)C(C)(C)c2ccccc21 (some centres unmarked)	xlnD	covalent inhibitor	Aspergillus nidulans	pH 4.5	–	kinact/Ki	33.3 M⁻¹ s⁻¹
NC(=NN=Cc1cccs1)[S][Ru+]([Cl])([P](c1ccccc1)(c1ccccc1)c1ccccc1)[P](c1ccccc1)(c1ccccc1)c1ccccc1.[Cl-]	Albumin (ALB, Bos taurus, UniProt P02769)	fluorescence quenching	–	together with: warfarin, site I marker	–	quenching rate constant	1.63e+11 M⁻¹ s⁻¹
O[C@@H]1[C@@H](O)[C@H](O)C[C@H]2N[C@@H]12	xlnD	covalent inhibitor	Aspergillus nidulans	pH 4.5	–	kinact/Ki	2330 M⁻¹ s⁻¹
CC(C)P(=[Se])(NP(=[Se])(C(C)C)C(C)C)C(C)C	Alpha-amylase	fluorescence quenching	–	concentration not given, pH 6.8, 298 K	–	ΔG of binding	-2.94 kcal/mol
N=C(N)SCc1ccc(B(O)O)cc1	Procathepsin L (CTSL, Homo sapiens, UniProt P07711)	enzyme activity, inhibitor	–	up to 10 µM, together with: Z-FR-AMC 10 µM	–	IC50	inactive
CC1=C(C)[C@H](Oc2c(F)cc3c(C)cc(=O)oc3c2F)OC1=O	RMS3	enzyme activity, substrate, DiFMU release	–	pre-steady state	–	kcat/K1/2	1970 M⁻¹ s⁻¹
Cc1cc(C2=CCN(CC3OCCO3)CC2)cc([N+](=O)[O-])c1N	HTR2A (Homo sapiens, UniProt P28223)	β-arrestin recruitment, agonist	–	–	–	Emax	119%
NC1CCc2cc(O)c(O)cc2C1 (centres unmarked)	Carbamate kinase (Giardia intestinalis, UniProt A8BB85)	enzyme activity, inhibitor, luminescence, ATP detection	Giardia lamblia	–	–	maximal inhibition	83.2%
C[C@H](NC(=O)[C@@H]1CCCN1C(=O)[C@@H](N)Cc1ccc(O)cc1)C(=O)O	Aminopeptidase N (ANPEP, Sus scrofa, UniProt P15145)	endomorphin-1 degradation, inhibitor, RP-HPLC	–	0 to 30 min, pH 7.4, 37 °C, together with: endomorphin-1	–	degradation rate constant	1.58 ± 0.05 min⁻¹
CC(C)P(=S)(NP(=[Se])(C(C)C)C(C)C)C(C)C	Alpha-amylase	tryptophan fluorescence, fluorescence quenching	–	0.20 mg/mL, 298 K	–	maximum emission wavelength	351 nm
NC(CNC(CNC(CC(=O)O)C(=O)O)C(=O)O)C(=O)O (centres unmarked)	OXA-48	enzyme activity, inhibitor	–	enzyme 1 nM, together with: nitrocefin 30 µM	–	IC50	no effect
Nc1nc2ncc(CNc3ccc(C(=O)N[C@@H](CCC(=O)NCCOCCOCCNC(=O)CN4CCN5CCN(CC4)CC(=O)[O][Al]([18F])[O]C(=O)C5)C(=O)O)cc3)nc2c(=O)[nH]1	FOLR1 (Homo sapiens, UniProt P15328)	radioligand saturation binding	xenograft homogenates	–	baseline: KB over CAL-51 xenografts	binding potential ratio	22 fold

SMILES	target	test	system	conditions	how to read	quantity	value
CC[C@H](C)[C@H](NC(=O)[C@H](CC(=O)O)NC(C)=O)C(=O)N[C@H](C(=O)N[C@H](C(=O)N[C@@H](CCCNC(=N)N)C(=O)N[C@@H](Cc1ccc(O)cc1)C(=O)N[C@@H](CC(N)=O)C(=O)NCC(=O)N[C@@H](CCCCN)C(=O)N[C@H](C(=O)N[C@@H](Cc1c[nH]c2ccccc12)C(=O)N[C@@H](Cc1c[nH]c2ccccc12)C(=O)N[C@@H](CCCNC(=N)N)C(=O)O)C(C)C)[C@@H](C)O)[C@@H](C)O	Insulin (INS, Bos taurus, UniProt P01317)	isothermal titration calorimetry	–	pH 2.6, 25 °C	–	Ka, site 2	60100 M⁻¹
Cn1cc(-c2cccc(CN3CCC4(CC3)COc3c4ccc4c3CN([C@H]3CCC(=O)NC3=O)C4=O)c2)cn1	Zinc finger protein Aiolos (Homo sapiens, UniProt Q9UKT9)	degrader, HiBiT	HEK293	6 h	–	Dmax	< 20%
COC(=O)C1C(OC(c2ccc(Cl)cc2)c2ccc(Cl)cc2)CC2CCC1N2C (single isomer, unassigned)	rat GABAA receptor agonist site	binding, radioligand displacement	–	inactive if below 75% at 10000 nM, together with: [3H]muscimol	–	Ki	inactive
C/C=C1\NC(=O)[C@H](Cc2ccccc2)NC(=O)[C@H](C(C)C)NC(=O)[C@H](Cc2ccccc2)NC(=O)[C@H](CCC(N)=O)NC(=O)[C@H](Cc2c[nH]c3ccccc23)NC(=O)[C@H]2CSC[C@@H](C(=O)N[C@@H](CO)C(=O)O)NC(=O)[C@H](CSC[C@H]3NC(=O)[C@H]([C@@H](C)CC)NC(=O)[C@H](NC(=O)[C@H](Cc4c[nH]cn4)NC(=O)[C@@H](NC(=O)[C@@H](NC(=O)CNC(=O)[C@H](CO)NC(=O)CNC(=O)CNC(=O)[C@@H](N)CCCCN)C(C)C)[C@@H](C)CC)[C@H](C)SC[C@H](NC(=O)[C@H](CCC(=O)O)NC(=O)[C@H](Cc4c[nH]cn4)NC3=O)C(=O)N[C@@H](CC(N)=O)C(=O)N[C@@H](CCSC)C(=O)N[C@@H](CC(N)=O)C(=O)N2)NC1=O	Integrin alpha-V/beta-3 (Homo sapiens, UniProt P05106+P06756)	fluorescence polarization competition	–	concentration not given, together with: fluorescein-c(RGDyK)	–	binding	no binding
CC(C)C[C@@H](NC(=O)[C@H]1CCCN1C(=O)[C@H](N)CC(=O)O)C(=O)N[C@H](CCCCN)C(=O)N[C@H](C)C(=O)N[C@H](CCCNC(=N)N)C(=O)N[C@H](Cc1c[nH]cn1)C(=O)N[C@@H](C(=O)N[C@H](CO)C(=O)N[C@@H](C(=O)N[C@H](Cc1c[nH]c2ccccc12)C(=O)N[C@H](Cc1ccc(O)cc1)C(N)=O)C(C)C)[C@H](C)O	Microtubule-associated protein tau, repeat domain (MAPT, Homo sapiens, UniProt P10636, del597-597)	dynamic light scattering	–	100 µM, 24 h, 10 µM tau, together with: 2.5 µM heparin	–	aggregate diameter	3000 to 4000 nm
CC(=O)N[C@@H](Cc1c[nH]c2ccccc12)C(=O)N[C@@H](CCC(=O)O)C(=O)N[C@@H](Cc1c[nH]cn1)C(=O)N[C@@H](CC(=O)O)C(=O)Nc1ccc2c(C)cc(=O)oc2c1	Caspase-10 (CASP10, Homo sapiens, UniProt Q92851)	substrate cleavage, substrate, fluorogenic AMC release	–	enzyme 0.25 activity units/µL	–	Vmax	131 ± 19.7 RFU/min
c1ccc(CN2CCOCCOCCN(CCCCCCCCCCN3CCOCCOCCN(CCCCCCCCCCN4CCOCCOCCN(Cc5ccccc5)CCOCCOCC4)CCOCCOCC3)CCOCCOCC2)cc1	Quinolone resistance protein NorA (Staphylococcus aureus, UniProt P0A0J7)	inhibitor	1199B	4 µM, 20 min	–	ethidium bromide accumulation	no effect
CC(=O)N[C@@H](CC(C)C)C(=O)N[C@@H](CCC(=O)O)C(=O)N[C@@H](Cc1c[nH]cn1)C(=O)N[C@@H](CC(=O)O)C(=O)Nc1ccc2c(C)cc(=O)oc2c1	Caspase-4 (CASP4, Homo sapiens, UniProt P49662)	substrate cleavage, substrate, fluorogenic AMC release	–	enzyme 0.25 activity units/µL	–	Vmax	2820 ± 159 RFU/min
CC(C)CC(=O)NC1CCCC1=O (centres unmarked)	rhlR (Pseudomonas aeruginosa, UniProt P54292)	reporter gene, agonist, refers to: rhlI-gfp fluorescence	PAO-JP2 reporter	–	–	maximal activation	96%
Nc1ncnc2c1ncn2[C@@H]1O[C@@H]2COP(=O)(O)O[C@H]3[C@@H](O)[C@H](n4cnc5cncnc54)O[C@@H]3COP(=O)(O)O[C@H]2[C@H]1O	gdpP residues 84-659	HPLC	–	concentration not given	baseline: c-di-AMP, higher = slower hydrolysis	hydrolysis rate fold decrease	3.8
CCN(Cc1ccccc1)C(=O)CCc1nc(CN2CCN(C(=O)Cc3ccc(OC)c(OC)c3)CC2)no1	KCNQ2 (Homo sapiens, UniProt O43526)	whole-cell patch clamp	CHO stable	100 nM	–	V1/2 of activation	-40.3 ± 22 mV
CC1=CC(Oc2c(F)cc3c(C)cc(=O)oc3c2F)OC1=O (racemic)	RMS3	enzyme activity, substrate, DiFMU release	–	pre-steady state	–	kcat/K1/2	233 M⁻¹ s⁻¹
CC(C)C[C@@H]1NC(=O)[C@H](Cc2ccc(O)cc2)NC(=O)CNC(=O)[C@H](CO)NC(=O)[C@H](Cc2ccccc2)NC(=O)[C@H](CCCCN)NC(=O)[C@H](CC(N)=O)NC(=O)[C@H](Cc2ccc(O)cc2)NC(=O)CSC[C@@H](C(=O)NCC(N)=O)NC(=O)CNC(=O)[C@@H]2CCCN2C(=O)[C@H](CCCNC(=N)N)NC1=O	Epidermal growth factor receptor, with EGF (EGFR, Homo sapiens, UniProt P00533)	inhibitor, AlphaLISA	–	concentration not given	–	protein interaction inhibition	inactive
Nc1ncnc2c1ncn2[C@@H]1O[C@H](COP(=O)(O)OP(=O)(O)OC[C@H]2O[C@@H](O)[C@H](O)[C@@H]2O)[C@@H](O)[C@H]1O	Protein mono-ADP-ribosyltransferase PARP14, macrodomain 2 (PARP14, Homo sapiens, UniProt Q460N5)	isothermal titration calorimetry	–	concentration not given	–	binding stoichiometry	0.96 ± 0.01
CC(C)OC(=O)[C@H](C)NP(=S)(Oc1ccccc1)c1ccccc1 (some centres unmarked)	Carboxypeptidase Y (Saccharomyces cerevisiae, UniProt P00729)	substrate, LC-MS/MS	–	5 µM, pH 7.4, 37 °C, together with: carboxypeptidase Y 60 ng/mL	–	degradation rate constant	0.0178 min⁻¹
COc1ccccc1C(=O)Nc1cccc(-c2nc3ncccc3o2)c1	Nucleoside transporter 1 (Plasmodium vivax, UniProt A5K8B0, D23E)	adenosine uptake, inhibitor	–	D23E mutant	baseline: D23E mutant over wild type	IC50 ratio	~3.5 fold
CN(C)c1ncnc2c1ncn2[C@@H]1O[C@@H]2COP(=O)(O)O[C@H]3[C@@H](O)[C@H](n4cnc5c(N(C)C)ncnc54)O[C@@H]3COP(=O)(O)O[C@H]2[C@H]1O	gdpP residues 84-659	HPLC	–	concentration not given	baseline: c-di-AMP, higher = slower hydrolysis	hydrolysis rate fold decrease	≥ 4100

A few entries again:
SMILES	target	test	system	conditions	how to read	quantity	value
CC(C)P(=[Se])(NP(=[Se])(C(C)C)C(C)C)C(C)C	Alpha-amylase	fluorescence quenching	–	concentration not given, pH 6.8, 298 K	–	ΔG of binding	-2.94 kcal/mol
N=C(N)SCc1ccc(B(O)O)cc1	Procathepsin L (CTSL, Homo sapiens, UniProt P07711)	enzyme activity, inhibitor	–	up to 10 µM, together with: Z-FR-AMC 10 µM	–	IC50	inactive
CC1=C(C)[C@H](Oc2c(F)cc3c(C)cc(=O)oc3c2F)OC1=O	RMS3	enzyme activity, substrate, DiFMU release	–	pre-steady state	–	kcat/K1/2	1970 M⁻¹ s⁻¹
